# Measurements of several laboratories.
# Every numbered part comes from another study and shows a few of its results, in no order. Changes are numbered by the printed parent chain.

# Series 1 — target: CEP164, C-terminal peptide (human); technique: DHFR complementation, deep sequencing; sample: yeast; reference: wild type; direction: higher = weaker binding
# Setting: single substitutions, model-inferred values
# Starting sequence: PDZK1, PDZ domain 2 (human); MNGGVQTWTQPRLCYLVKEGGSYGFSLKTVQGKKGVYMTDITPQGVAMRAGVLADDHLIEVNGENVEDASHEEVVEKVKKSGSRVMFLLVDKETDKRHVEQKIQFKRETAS; partner HNRVKVYRF
Change,binding free energy change [kcal/mol]
S83W,-0.157
E108Y,-0.196
D40G,0.786
S70M,0.0366
K33N,0.348
D56V,0.773
Q6I,0.0299
V46G,1.15

# Series 2 — technique: RNA Bind-n-Seq; molecule type: RNA; sample: in vitro; concentration: 365 nM; reference: no-protein control; direction: higher = stronger binding
# Target: RNA binding protein fox-1 homolog 2, RRM domain, GST-SBP tag (RBFOX2, Homo sapiens, UniProt O43251-10, residues 100-194)
# Setting: natural RNA segment, single round, ends assumed
# All sequences stand within: GGGAGUUCUACAGUCCGACGAUC … UGGAAUUCUCGGGUGCCAA
# Residues (chain): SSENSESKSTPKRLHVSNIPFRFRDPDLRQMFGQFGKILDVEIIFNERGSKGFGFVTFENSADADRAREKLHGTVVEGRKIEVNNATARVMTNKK
Sequence,RBNS enrichment (R)
GUGGUGCUCACCAGAGUCAGGCCACCCACUGGGCUCGGCAGGAGAUAGGGAGCCCCAUCACCUGACCACAGCCCCCCACCAACAUUCCCCCAAAAUGCAGCCUAGGAGGC,0.45
GUAGUGCCCUUCCUUCAUCAGGCCAAAGCACCAAGUUGCUUCACUGCCUCGGCCUUUUGUCCAGCUCAGCCUGGGAUGUCUAUAGGGUUGAGGGUUUUAGACAAUCUCUA,0.213
GCCACCAAGGCCCCAAAGGAUAGGGACGGUCGUAUCCUUAUGAAUCCCACUAAAACUUAGGCUGGGAAUGACAGUUUUCCUUUCCAGUCUCAGUUCAUGAGAACCCAUUU,0.184
GUUGUCUGUAAAUUGGAUGAAAAGAGCUCUAAUGCCUUUCAGGCUCUUAGAAGCCAUAGAUUUGGACAAGCCCAGCAAGAUGGGUGUCCUUCCAGGCCUCUUCCCCUUUC,0.964
CAAAGGAAUGUGAUUGGAUUUACUGGUUGGUUAAUUUCUUGUGAAAUAUUGUCAUAAUAGAAGCACAGCUUGAACAAAAGACUGAAUUCUGAUAUAAACUGUCAAUAUUG,7.68
GCAAUGAGGAAGGAAAGGUUUCAAAUUUAGGGGCAGAAGUGAGAGAAUGAGCCAACCCAUGUACCUGCUGCAACUGAACCAGACUGGGUUUUCAAGGCUCCCAGACGUAG,1.5
UUGUGGGGAGAGGGAAGGAGGAAGUCAGUUAUUUGAGUAAGCCUCUAGUUGACUUUUCUCUUAGCCUGAAUGUGGACGUUGAAACAUAUCACUUCAGGGCUUGGAAAAGU,1.08
UCAGAAAGAUGUCCAUAAUAAAUAUUAAAAACAAUGGUAUUUUUUAAAAAACUGCCUUAGGGUUUUAAAACCUUCCCUACAGUUAUAACCACGUGUAAUUUUGUGGAAAU,0.476

# Single results of other studies
# P1: PafA, mature enzyme, eGFP fusion (Elizabethkingia meningoseptica, UniProt Q9KJX5); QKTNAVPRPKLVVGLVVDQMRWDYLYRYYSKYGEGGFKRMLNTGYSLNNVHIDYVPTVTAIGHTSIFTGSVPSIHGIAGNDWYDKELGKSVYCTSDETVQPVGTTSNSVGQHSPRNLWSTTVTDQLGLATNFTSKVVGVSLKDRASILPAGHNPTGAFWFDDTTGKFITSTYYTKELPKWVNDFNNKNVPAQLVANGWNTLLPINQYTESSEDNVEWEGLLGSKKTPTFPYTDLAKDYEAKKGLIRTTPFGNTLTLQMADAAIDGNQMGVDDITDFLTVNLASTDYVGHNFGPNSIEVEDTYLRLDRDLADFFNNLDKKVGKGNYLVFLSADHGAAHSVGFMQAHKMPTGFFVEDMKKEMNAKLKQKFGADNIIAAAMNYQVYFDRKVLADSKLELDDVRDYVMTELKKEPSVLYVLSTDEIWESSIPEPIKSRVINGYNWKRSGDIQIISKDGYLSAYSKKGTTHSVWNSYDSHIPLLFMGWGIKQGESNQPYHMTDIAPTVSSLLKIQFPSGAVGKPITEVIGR
Molecule,target,assay,test system,setting,how to read,endpoint,result
P1 T226G,"vanadate, free oxyanion",microfluidic competitive inhibition,"in vitro, cell-free expressed","not given, derived from inhibition constants, unchanged parent 676 nM",lower = stronger binding,oxyanion analog dissociation constant,829 nM
"PhoQ, residues 284 288 289 292 302 303 SIHLQL","PhoP, residues 12 14 15 18 19 LHSVQ (Escherichia coli, UniProt P23836)","Sort-seq, item: YFP reporter",E. coli,"PhoQ-PhoP variant library, with: 10 µM Mg2+","reference: high Mg2+ state, higher = stronger signaling",fold induction,12.6
